Published values pooled from the literature.
Each numbered part is a random draw from the data of one study; scales do not carry over between parts. Changes are numbered by the printed parent chain.

Sample 1
Target: Fragile X messenger ribonucleoprotein 1, C-terminal low-complexity region (Fmr1, Mus musculus, UniProt P35922)
Method: RNA Bind-n-Seq
Form: RNA
Medium: in vitro
Concentration: 200 nM
Setting: whole 134-nt RNA, ends assumed
Added: 150 mM KCl
Baseline: input library
Reading: higher = stronger binding
Sequence	log2 enrichment
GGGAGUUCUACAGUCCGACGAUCUCCUGUGCUACACAUCGUAUGUACCGAAUCGGGGUUUUUUUGGGGUGGGGUUUUUGGGGAAAGUAUUAUGUUACGCCGUUCGGAUCUGCAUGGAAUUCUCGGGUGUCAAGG	0.908
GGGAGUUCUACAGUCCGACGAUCUGGGAGGUGGAUUUUGUUUAUUUUUUUGGCUCAUUUCCAGGGGUGGGAAUUUUUUUUUAAUAUGUGUCAUGAAUAAAGUUGUUUUUGAAAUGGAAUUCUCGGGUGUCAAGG	0.0736
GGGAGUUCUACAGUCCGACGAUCUGGCCCUGGUGGCAUGCGGGGAGGAAGAGGGGGCCUCAUGGAUCGUGGUGGUCCCGGUGGAAUGUUCAGAGGUGGCCGUGGUGGAGACAGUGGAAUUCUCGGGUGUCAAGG	0.374
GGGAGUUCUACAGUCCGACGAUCAAGUCCUGUGCUACACAUCGUAUGUACCGAAUCGGGGAAAGGGGUUUGGGGUGGGGAAAGUAUUAUGUUACGCCGUUCGGAUCUGCACUUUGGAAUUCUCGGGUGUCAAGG	0.981
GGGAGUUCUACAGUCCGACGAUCCUCAAGUCCUGUGCUACACAUCGUAUGUACCGAAUCGGAGGAGGUUUUUUUGGAAAGUAUUAUGUUACGCCGUUCGGAUCUGCACUUCCAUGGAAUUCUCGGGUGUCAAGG	-0.308
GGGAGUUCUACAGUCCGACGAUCCUCAAGUCCUGUGCUACACAUCGUAUGUACCGAAUCGGGUUUGGGUGGGUGGGAAAGUAUUAUGUUACGCCGUUCGGAUCUGCACUUCCAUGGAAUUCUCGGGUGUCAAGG	1.52
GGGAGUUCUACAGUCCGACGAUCCAAGUCCUGUGCUACACAUCGUAUGUACCGAAUCGGAGGAAAAAAAGGUUUUUGGAAAGUAUUAUGUUACGCCGUUCGGAUCUGCACUUCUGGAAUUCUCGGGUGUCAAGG	-0.883
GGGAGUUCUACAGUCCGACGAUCAGGACGUGCAGAACUUCCUCUCUGACUGCACGAUUCAUGAUGGGGCCGCAGGUGUCCAUUUCAUCUACACUAGAGAGGGCAGGCAGAGUGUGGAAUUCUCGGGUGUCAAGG	0.572

Sample 2
Variant: H55D
Target: ABI1, truncated, D143A, DHFR fusion (Arabidopsis thaliana)
Method: DHFR PCA, deep sequencing
Medium: yeast
Setting: methotrexate growth selection, single substitutions
Baseline: wild-type fitted maximum
Reading: higher = stronger binding
Parent: PYL1, truncated, DHFR fusion (Arabidopsis thaliana); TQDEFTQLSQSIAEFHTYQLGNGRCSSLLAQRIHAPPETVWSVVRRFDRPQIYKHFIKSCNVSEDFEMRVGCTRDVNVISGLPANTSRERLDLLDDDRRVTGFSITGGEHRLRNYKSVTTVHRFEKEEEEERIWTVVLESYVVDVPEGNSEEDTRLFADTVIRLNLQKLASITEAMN; partner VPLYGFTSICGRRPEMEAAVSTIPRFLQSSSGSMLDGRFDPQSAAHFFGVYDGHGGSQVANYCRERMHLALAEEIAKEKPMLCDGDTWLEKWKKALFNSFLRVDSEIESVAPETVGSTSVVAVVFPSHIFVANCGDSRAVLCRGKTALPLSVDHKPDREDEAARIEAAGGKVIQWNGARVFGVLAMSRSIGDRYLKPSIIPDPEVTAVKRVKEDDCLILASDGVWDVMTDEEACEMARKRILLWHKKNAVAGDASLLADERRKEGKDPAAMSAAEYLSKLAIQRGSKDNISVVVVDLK
added	relative binding score
(+)-ABA 0.032 µM	-0.747%
(+)-ABA 17 µM	68.7%
(+)-ABA 4.8 µM	46.2%
(+)-ABA 0.39 µM	11.4%
(+)-ABA 200 µM	91%
(+)-ABA 710 µM	104%

Single results of other studies
SMILES	target or system	assay	system	conditions	scale	quantity	result
Cc1ccc2c(c1)C(NC(=O)c1ccc(CS(=O)(=O)c3ccc(Br)cc3)o1)CC1(CCCCC1)O2 (stereo not shown)			mouse, microsomes or S9	2 µM, 0.5 h		remaining compound	10%
CN(C)[C@H]1CCN(c2cc(-c3ccccc3)nc3ccnn23)C1	normal adjacent epithelium patient-derived organoids	CellTiter-Glo		1 µM, mean of five organoid lines	baseline: DMSO	viability	118%

A few entries again (single results of other studies):
SMILES	target or system	assay	system	conditions	scale	quantity	result
CN(C)[C@H]1CCN(c2cc(-c3ccccc3)nc3ccnn23)C1	normal adjacent epithelium patient-derived organoids	CellTiter-Glo		1 µM, mean of five organoid lines	baseline: DMSO	viability	118%
Cc1ccc2c(c1)C(NC(=O)c1ccc(CS(=O)(=O)c3ccc(Br)cc3)o1)CC1(CCCCC1)O2 (stereo not shown)			mouse, microsomes or S9	2 µM, 0.5 h		remaining compound	10%
